Measurements of several laboratories.
Protocols differ between the studies behind these lines. ± marks the error that the study gave.
Organism: Salmonella typhimurium

For `COc1cccc(-c2n[nH]c(SCc3ccccn3)n2)c1OC`, “revertant colonies per plate” read 26 (Ames test, plate incorporation; TA98; 0.25 mg/plate, with rat liver S9).
`OC(CCN1CC=C(c2ccc(F)cc2)CC1)c1ccc(F)c2ccccc12` (stereo not drawn) gave a survival of 27.4% (SOS/umu test; TA1535/pSK1002; 0.031 mg/mL, 4 h, without S9, full range).
`Cc1cc(C(=O)NC(C)(C)COc2cccc3c2C(N)=NS(=O)(=O)N3)cc(C)n1` has a revertant ratio of 1.3 (Ames test, initial; TA100; 5000 µg/plate, together with: rat liver S9; reference: solvent control).
For `CC(C)N(N=O)C(C)C`, “revertant colonies per plate” read 32.7 ± 5 (mutagenicity, Ames plate incorporation; TA1535; 500 µg/plate, without S9, methanol).
For `Fc1ccc(C2=CCNCC2)cc1`, the induction factor was 1.3 (SOS response, SOS/umu test; TA1535/pSK1002, TGA medium; 0.5 mg/mL, 4 h, together with: 10% rat liver S9; reference: untreated).
Under “revertant colonies per plate”, `O=NN1CCN(C2CCCC2)CC1` is recorded as 12.7 ± 6 (mutagenicity, Ames plate incorporation; TA1535; 500 µg/plate, 3 d, without S9, methanol).
`O=[N+]([O-])c1ccc(N2CCC(NCCC(O)c3ccc(F)c4ccccc34)CC2)c(C(F)(F)F)c1` (stereo not drawn) gave an induction factor of 0.72 (genotoxicity, SOS/umu test; TA1535/pSK1002; 0.063 mg/mL, 4 h, with S9, full range).
For `CC(=O)N1CCC(C(=O)N2CCN3C(=O)c4cc(-c5ccccc5)ccc4NC(=O)C3C2)CC1` (stereo not drawn), “revertants per plate” read 108 (TA100; 50 µg/plate, with rat liver S9).
Under “revertant colonies per plate”, `CNC(=O)c1c(N(C)N=O)ncn1C` is recorded as 157 ± 14 (mutagenicity, Ames plate incorporation; TA100; 50 µg/plate, without S9, methanol).

Repeated from above:
For `COc1cccc(-c2n[nH]c(SCc3ccccn3)n2)c1OC`, “revertant colonies per plate” read 26 (Ames test, plate incorporation; TA98; 0.25 mg/plate, with rat liver S9).
